Assay results collected from several papers.
Each line is one published result; not all experiments were run side by side.
Organism: Staphylococcus aureus

Structure (SMILES) = CN[C@H](CC(C)C)C(=O)N[C@H]1C(=O)N[C@@H](CC(N)=O)C(=O)N[C@H]2C(=O)N[C@H]3C(=O)N[C@H](C(=O)N[C@H](C(=O)O)c4cc(O)cc(O)c4-c4cc3ccc4O)[C@H](O)c3ccc(c(Cl)c3)Oc3cc2cc(c3O[C@@H]2O[C@H](CO)[C@@H](O)[C@H](O)[C@H]2O[C@H]2C[C@](C)(N)[C@H](O)[C@H](C)O2)Oc2ccc(cc2Cl)[C@H]1O; method = broth microdilution; strain = VISA NRS402; matrix = tryptic soy broth; time = 20 to 24 h; temperature = 37 °C; setting = 0.002% polysorbate 80; MIC = 8 µg/mL
Structure (SMILES) = Cc1ccc2[nH]c3c(c2c1)CCCC3NCCc1ccc(Br)cc1 (stereo not shown); method = broth microdilution; strain = HG001; MIC = 4 µg/mL
Structure (SMILES) = CC(C)C[C@H](NC(=O)[C@H](Cc1c[nH]c2ccccc12)NC(=O)[C@H](CC(C)C)NC(=O)[C@@H](NC(=O)[C@H](CC(C)C)NC(=O)[C@H](CCCNC(=N)N)NC(=O)[C@@H](N)CCCNC(=N)N)[C@@H](C)O)C(=O)N[C@H](C(=O)N[C@@H](CC(C)C)C(=O)N[C@@H](CCCNC(=N)N)C(=O)N[C@@H](CCCNC(=N)N)C(N)=O)[C@@H](C)O; strain = MRSA 43300; time = 24 h; temperature = 37 °C; MIC = 4 µM
Structure (SMILES) = CC[C@H](C)[C@H](N)C(=O)N[C@@H](CC(C)C)C(=O)NCC(=O)N[C@H](CCCNC(=N)N)C(=O)N[C@H](C(=O)N[C@@H](Cc1c[nH]c2ccccc12)C(=O)N[C@@H](CCCCN)C(=O)NCC(=O)N[C@H](C(=O)N[C@@H](CCCCN)C(=O)N[C@@H](CC(=O)O)C(=O)N[C@H](C(=O)N[C@@H](CC(C)C)C(N)=O)[C@@H](C)CC)[C@@H](C)CC)[C@@H](C)CC; method = broth microdilution; strain = ATCC 25923; matrix = Mueller-Hinton broth; time = 16 h; temperature = 37 °C; MIC = 6.25 µM
Structure (SMILES) = CC[C@H](C)[C@H](NC(=O)[C@H](CCCNC(=N)N)NC(=O)[C@H](CCCNC(=N)N)NC(=O)[C@H](CCCNC(=N)N)NC(=O)[C@H](CCCNC(=N)N)NC(=O)[C@H](CCCNC(=N)N)NC(=O)[C@@H](N)CCCNC(=N)N)C(=O)N[C@@H](CO)C(=O)N[C@@H](Cc1ccccc1)C(=O)N[C@@H](CC(C)C)C(=O)NCC(=O)N[C@@H](CO)C(=O)N[C@@H](CCCCN)C(=O)N[C@H](C(=O)N[C@H](C(=O)N[C@H](C(=O)N[C@@H](CC(C)C)C(=O)N[C@@H](CC(C)C)C(=O)N[C@@H](CCCCN)C(=O)N[C@@H](CCCNC(=N)N)C(=O)N[C@@H](CCCNC(=N)N)C(=O)N[C@@H](CCCNC(=N)N)C(=O)N[C@@H](CCCNC(=N)N)C(=O)N[C@@H](CCCNC(=N)N)C(N)=O)C(C)C)C(C)C)C(C)C; method = broth microdilution; time = 24 h; temperature = 37 °C; MIC = 8 µM
Structure (SMILES) = Cc1onc(-c2ccccc2)c1C(=O)N[C@@H]1C(=O)N2[C@@H]1SC(C)(C)[C@@H]2C(=O)O; strain = COL, MRSA; MIC = 256 µg/mL
Structure (SMILES) = NC(=O)c1ccc(N(C(N)=O)c2c(F)cccc2F)nc1-c1ccc(F)cc1F; strain = NCTC 8325; MIC = > 30 µM
Structure (SMILES) = CC[C@H](C)[C@H](NC(=O)[C@H](Cc1c[nH]c2ccccc12)NC(=O)[C@@H](NC(=O)[C@H](Cc1c[nH]c2ccccc12)NC(=O)[C@@H]1CCCN1C(=O)[C@@H](NC(=O)[C@H](C)N)[C@@H](C)CC)[C@@H](C)CC)C(=O)N[C@@H](Cc1c[nH]c2ccccc12)C(=O)N[C@@H](CCCNC(=N)N)C(=O)N[C@@H](CC(C)C)C(=O)N[C@@H](CC(C)C)C(=O)N[C@@H](CCCNC(=N)N)C(=O)N[C@@H](CCCCN)C(=O)NCC(N)=O; method = broth microdilution; strain = ATCC 6051; time = 18 h; temperature = 37 °C; MIC = 0.23 µM
Structure (SMILES) = Cn1c(=O)ccc2ccc(F)c(CCNC[C@@H]3CN(c4cnc5c(n4)NC(=O)CO5)C(=O)O3)c21; strain = ATCC 29213; MIC = 0.008 µg/mL
Structure (SMILES) = CC[C@H](C)[C@H](NC(=O)[C@H](CC(C)C)NC(=O)[C@H](CCCNC(=N)N)NC(=O)[C@@H](N)CCCNC(=N)N)C(=O)N[C@@H](CCCNC(=N)N)C(=O)N[C@H](C(=O)N[C@@H](CC(C)C)C(=O)N[C@H](C(=O)NCC(=O)N1CCC[C@H]1C(=O)N[C@H](C(=O)N[C@H](C(=O)N[C@@H](Cc1ccc(O)cc1)C(=O)N[C@@H](CC(C)C)C(=O)N[C@@H](Cc1ccc(O)cc1)C(=O)N[C@@H](Cc1ccccc1)C(=O)N[C@@H](CCCCN)C(=O)N[C@@H](CC(C)C)C(=O)N[C@@H](CCC(N)=O)C(=O)N[C@@H](CC(C)C)C(=O)N[C@@H](CC(C)C)C(=O)N[C@@H](CCCCN)C(=O)N[C@@H](CCCCN)C(N)=O)[C@@H](C)CC)[C@@H](C)CC)[C@@H](C)O)[C@@H](C)O; strain = CCARM 3095, methicillin-resistant; matrix = Mueller-Hinton broth; time = 24 h; MIC = 128 µM
Structure (SMILES) = CC[C@H](C)[C@H](NC(=O)[C@H](CCCNC(=N)N)NC(=O)[C@H](CCCCN)NC(=O)[C@H](Cc1c[nH]c2ccccc12)NC(=O)[C@H](CCC(N)=O)NC(=O)[C@H](Cc1ccccc1)NC(=O)[C@H](Cc1c[nH]c2ccccc12)NC(=O)[C@@H](NC(=O)[C@H](CCCCN)NC(=O)[C@@H](NC(=O)[C@H](CCC(N)=O)NC(=O)[C@@H](N)CCCNC(=N)N)[C@@H](C)CC)[C@@H](C)CC)C(=O)N[C@@H](CCCCN)C(=O)N[C@@H](Cc1c[nH]c2ccccc12)C(=O)N[C@@H](CCCNC(=N)N)C(=O)N[C@@H](CCCNC(=N)N)C(=O)O; strain = ATCC 29213; MIC = 0.75 µM
Structure (SMILES) = CC[C@H](C)[C@H](NC(=O)[C@H](CC(C)C)NC(=O)[C@H](CCCNC(=N)N)NC(=O)[C@@H](N)CCCNC(=N)N)C(=O)N[C@@H](CCCNC(=N)N)C(=O)N[C@@H](CCCCN)C(=O)N[C@@H](CC(C)C)C(=O)N[C@@H](CCCCN)C(=O)NCC(=O)N[C@@H](CC(C)C)C(=O)N[C@@H](CCCCN)C(=O)N[C@@H](CCCCN)C(=O)N[C@@H](Cc1ccc(O)cc1)C(=O)N[C@@H](CC(C)C)C(=O)N[C@@H](Cc1ccc(O)cc1)C(=O)N[C@@H](Cc1ccccc1)C(=O)N[C@@H](CCCCN)C(=O)N[C@@H](CC(C)C)C(=O)N[C@@H](CCC(N)=O)C(=O)N[C@@H](CC(C)C)C(=O)N[C@@H](CC(C)C)C(=O)N[C@@H](CCCCN)C(=O)N[C@@H](CCCCN)C(N)=O; strain = CCARM 3095, methicillin-resistant; matrix = Mueller-Hinton broth; time = 24 h; MIC = 8 µM
Structure (SMILES) = CC[C@H](C)[C@H](NC(=O)[C@H](CC(C)C)NC(=O)[C@H](CCCCN)NC(=O)[C@H](CC(C)C)NC(=O)CNC(=O)[C@@H](NC(=O)[C@H](CO)NC(=O)[C@@H](NC(=O)[C@@H](NC(=O)[C@H](CCC(N)=O)NC(=O)[C@H](Cc1c[nH]c2ccccc12)NC(=O)[C@H](CCCNC(=N)N)NC(=O)[C@H](CC(N)=O)NC(=O)[C@H](CCCNC(=N)N)NC(=O)[C@H](CCCNC(=N)N)NC(=O)[C@@H](NC(=O)[C@H](Cc1ccccc1)NC(=O)[C@H](CCCNC(=N)N)NC(=O)CNC(=O)[C@H](C)NC(=O)[C@H](CCCNC(=N)N)NC(=O)[C@H](CCCNC(=N)N)NC(=O)[C@H](CCCCN)NC(=O)[C@H](Cc1ccccc1)NC(=O)[C@H](CCCNC(=N)N)NC(=O)CNC(=O)[C@H](Cc1c[nH]c2ccccc12)NC(=O)[C@H](CCCNC(=N)N)NC(=O)CNC(=O)[C@H](CCCNC(=N)N)NC(=O)[C@@H](N)[C@@H](C)O)[C@@H](C)CC)[C@@H](C)CC)[C@@H](C)CC)[C@@H](C)O)C(=O)NCC(=O)O; strain = CMCC 26003; setting = highest concentration 50 µM; MIC = 1.2 µM

A few entries again:
Structure (SMILES) = Cc1ccc2[nH]c3c(c2c1)CCCC3NCCc1ccc(Br)cc1 (stereo not shown); method = broth microdilution; strain = HG001; MIC = 4 µg/mL
